Measurements collected from several papers.
A part holds a random share of what one study measured. Substitutions count along the parent as printed.

Block 1
Target: Sal-like protein 4, full length isoform A (SALL4, Homo sapiens, UniProt Q9UJQ4, residues 1-1053)
Chain of UniProt Q9UJQ4 (whole entry, looked up): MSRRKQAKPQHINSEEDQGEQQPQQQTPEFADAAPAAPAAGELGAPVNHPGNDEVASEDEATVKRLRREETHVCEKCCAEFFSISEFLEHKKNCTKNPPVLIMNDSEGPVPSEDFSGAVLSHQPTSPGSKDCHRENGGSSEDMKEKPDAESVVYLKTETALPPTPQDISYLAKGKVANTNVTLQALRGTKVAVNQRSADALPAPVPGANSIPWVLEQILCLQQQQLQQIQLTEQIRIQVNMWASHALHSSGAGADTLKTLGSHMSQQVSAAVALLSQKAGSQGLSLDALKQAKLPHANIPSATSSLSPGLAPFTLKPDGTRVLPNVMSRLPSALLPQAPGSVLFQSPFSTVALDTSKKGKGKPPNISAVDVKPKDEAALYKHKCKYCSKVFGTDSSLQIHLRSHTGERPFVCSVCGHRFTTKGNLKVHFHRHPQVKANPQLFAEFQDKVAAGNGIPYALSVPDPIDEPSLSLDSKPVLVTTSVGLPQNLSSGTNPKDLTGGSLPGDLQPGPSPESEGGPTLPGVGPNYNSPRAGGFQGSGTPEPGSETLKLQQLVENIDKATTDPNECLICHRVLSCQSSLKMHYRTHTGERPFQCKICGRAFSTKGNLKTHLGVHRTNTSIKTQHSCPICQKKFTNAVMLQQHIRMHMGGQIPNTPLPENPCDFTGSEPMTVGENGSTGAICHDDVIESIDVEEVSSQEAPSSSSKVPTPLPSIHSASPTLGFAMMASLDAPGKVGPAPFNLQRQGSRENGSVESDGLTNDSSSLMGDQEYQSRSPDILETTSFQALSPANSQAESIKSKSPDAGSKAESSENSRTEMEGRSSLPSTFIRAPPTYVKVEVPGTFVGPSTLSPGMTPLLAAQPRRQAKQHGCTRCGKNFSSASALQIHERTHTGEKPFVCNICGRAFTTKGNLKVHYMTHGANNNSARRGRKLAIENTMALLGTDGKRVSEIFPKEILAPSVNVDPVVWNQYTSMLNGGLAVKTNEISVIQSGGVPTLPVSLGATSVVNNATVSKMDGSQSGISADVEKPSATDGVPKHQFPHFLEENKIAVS
Technique: universal PBM
Form: double-stranded DNA, one strand shown
Medium: in vitro
Tested at: 600 nM
Setting: 8-mer, flanks averaged, mean of replicates
Direction: higher = stronger binding
| Strand | E-score |
| --- | --- |
| TGCCAGAA | -0.0125 |
| ACACGTTA | 0.133 |
| CTTAACTA | 0.177 |
| CACCACGA | -0.0425 |
| AGACCAAT | 0.151 |
| ACTGGCAG | -0.199 |
| AAAGGCCG | -0.216 |
| ACGGCTGC | -0.341 |
| AGAAGACC | -0.167 |
| ATTGAAGA | 0.158 |
| CTTCGGTC | -0.0383 |
| AGTACACT | 0.046 |
| CTCGTGGC | -0.171 |
| ACGGGTAA | -0.111 |
| ATACGGGC | -0.0927 |
| AAGTCACT | 0.0853 |
| ATTGTGCC | 0.0291 |
| GCCTCAGC | -0.204 |
| ACATTTTA | 0.356 |
| AGCGCCGG | -0.423 |
| GGATACGA | 0.00883 |

Block 2
Target: ABI1, truncated, D143A, DHFR fusion (Arabidopsis thaliana)
Technique: DHFR PCA, deep sequencing
Medium: yeast
Setting: methotrexate growth selection, single substitutions
Added: (+)-ABA 4.8 µM
Reference: wild-type fitted maximum
Direction: higher = stronger binding
Starting sequence: PYL1, truncated, DHFR fusion (Arabidopsis thaliana); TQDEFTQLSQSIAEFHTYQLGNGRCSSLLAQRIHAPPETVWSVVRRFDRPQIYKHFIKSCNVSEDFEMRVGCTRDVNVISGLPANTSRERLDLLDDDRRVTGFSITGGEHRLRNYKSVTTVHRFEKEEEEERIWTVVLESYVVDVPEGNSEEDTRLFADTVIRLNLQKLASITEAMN
| Substitution | relative binding score |
| --- | --- |
| I172V | 91.6% |
| Y115H | 11.2% |
| R155F | -14.2% |
| I105C | 19.5% |
| I133M | 79.6% |
| E152Q | 69% |
| N149W | -8.26% |
| Q167K | 90.8% |
| S140N | -10.2% |
| S63L | 47.1% |
| I52V | 83.5% |
| E127L | 71.4% |
| E125L | 70.2% |

Block 3
Target: CCNB1, cyclin fold, Cln2 fusion (human)
Technique: yeast growth competition, sequencing
Medium: yeast
Setting: strong parent motif
Reference: not given
Direction: higher = stronger binding
Starting sequence: E2F1 docking peptide (human); PPVKRRLDLETDH; partner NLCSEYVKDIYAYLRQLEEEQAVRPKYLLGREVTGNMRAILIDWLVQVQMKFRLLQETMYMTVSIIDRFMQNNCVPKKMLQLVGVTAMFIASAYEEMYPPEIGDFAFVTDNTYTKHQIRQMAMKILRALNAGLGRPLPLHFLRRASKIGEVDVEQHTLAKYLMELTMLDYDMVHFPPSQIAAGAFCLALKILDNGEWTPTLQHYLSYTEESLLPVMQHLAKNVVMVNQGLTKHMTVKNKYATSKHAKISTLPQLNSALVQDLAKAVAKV
| Substitution | normalised enrichment score |
| --- | --- |
| R5W | 0.536 |
| H13A | 1.62 |
| P2C | 1.48 |
| H13W | 0.952 |
| L7Y | 0.514 |
| E10W | 0.626 |
| D8N | 1.96 |
| V3Y | 0.116 |
| L7R | 0.853 |
| H13N | 0.952 |
| P2E | 1.03 |
| T11A | 1.29 |
| K4P | 0.554 |
| T11I | 1.44 |
| R5Q | 0.621 |
| P1V | 1.12 |

Block 4
Target: RNA binding protein fox-1 homolog 2, RRM domain, GST-SBP tag (RBFOX2, Homo sapiens, UniProt O43251-10, residues 100-194)
Technique: RNA Bind-n-Seq
Form: RNA
Medium: in vitro
Tested at: 365 nM
Setting: natural RNA segment, single round, ends assumed
Reference: no-protein control
Direction: higher = stronger binding
Target sequence (chain): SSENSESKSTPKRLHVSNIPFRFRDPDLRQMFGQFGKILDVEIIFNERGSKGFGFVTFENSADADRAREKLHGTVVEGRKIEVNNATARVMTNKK
| Strand | RBNS enrichment (R) |
| --- | --- |
| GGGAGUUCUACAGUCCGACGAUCUUUCCUCUUGAGGAUACUUAGGGUAAACUGGAUCCUUCCUGCUCAAGGAUCCUCAUUUGUAUACCUAGUGGAAAGGACUCUGAACUCAGAGGAGUCACUGUUCCUUUUUUUGGAAUUCUCGGGUGCCAA | 0.428 |
| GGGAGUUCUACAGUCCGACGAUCAGCCCUGCUGGGGUCCAACUGACCUGGGACCAGGUGUCGCGCAGAGAUGUGCCUCAUUCUGUGCCUCCUUCUGUGCCUCCUACCAUGUUCCCUUUAACUGUGCCUCAGUGUGGAAUUCUCGGGUGCCAA | 0.256 |
| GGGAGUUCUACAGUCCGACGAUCAUUAGAGUCAUUUGAUCCAAGUUGGAGUCAGACACAGUAUUUGAGCUGCACGGCUUCUGGGUUCUCCCACCUUAUUUGAUCAUAUUCGAAAGAUUAUUUCCUGUGUUUGCUGGAAUUCUCGGGUGCCAA | 0.566 |
| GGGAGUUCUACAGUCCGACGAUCAUGUAUUCAUUAUAGUUACAAUAUCCAACUAAAAAGUACGCUAUCUAGAAGUAUACCGACCAAAAUCUAGUAUUGACAUGAUCUUGACAGGCUGGACCUGUGAGAUAUGGUGGAAUUCUCGGGUGCCAA | 0.361 |
| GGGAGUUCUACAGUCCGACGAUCGGGUGGACAUUAGGGUAGGGUGAGGUCAACCUAAUACUGACUUGUCAGUAUCUCCAGCUCUGAUUACCUUUGAAGUGUUCAGAAGAGACAUUGUCUUCUACUGUUCUGCCUGGAAUUCUCGGGUGCCAA | 0.674 |
| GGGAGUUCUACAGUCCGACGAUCCUCUGGGAAGUCAGCUCUGCCGGCCCGAGAGGGGCGGGCACUUUUUCAGCUUGCUAUAACCCCUUCCCCAUACCUCCAGGCAGGGUUGGAAAUGAAGGACUUUUUUAACCUGGAAUUCUCGGGUGCCAA | 0.362 |
| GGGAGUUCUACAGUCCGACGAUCAGGGAAUACAAGGUGCUAGGUACCCUCCUUCCUCGUUGGCCACUAAGAGGUCUUAGAAACAUAGCCUGUAAAUGUGUCUUGUAACUGGCACACUAAAAAAGAUCCUAGUUUGGAAUUCUCGGGUGCCAA | 0.719 |
| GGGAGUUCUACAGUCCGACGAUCAAGCCUUUCUUCCUUUAUAUCUUCUGACUGAGCUCUCCCUGAUUGACAUCACCUCAUGCGAUGACCUCCCUCAUUCUGUGCUGCCUCAGCACUUAUCUUUUGAGUUUGUAUGGAAUUCUCGGGUGCCAA | 0.397 |
| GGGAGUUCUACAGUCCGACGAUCUGAUAGUUGGCCUCUGGUCUACAAAGAUUUCAUAACUCCUUGGAAAGCUUCUUAUAAUCAUUCUUAACUUCUUGGUAGCUAGAAAUUUAGAGUAGUUGAAAUCUUUAGGAUGGAAUUCUCGGGUGCCAA | 0.552 |
| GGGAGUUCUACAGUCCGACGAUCGGAAGAUCCACAAUCAAGUUCUCAAGUAACCACUUCAUAAUAUACUGCUGAAGGGCUUCUUCUUAUAGCAAGAACUCUGCACAGCAACUGCCUGGAUGUGUUUGAUUUUUUGGAAUUCUCGGGUGCCAA | 0.563 |
| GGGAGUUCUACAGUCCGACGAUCGAAGACAAGAGCUCACCCACUGUGCCUCCCAGCCCAUUCCCUGCCCCCUCAAAGCCUUCAGCCACCUCCGCCACUCAGGAACUGGAUAGACUGAUGGCCUCGCUCUCUGAUGGAAUUCUCGGGUGCCAA | 0.624 |
| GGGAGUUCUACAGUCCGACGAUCGUAGCUUUGCCAGAUAUGUACUUAGAGAUAUCAACCGUGUUAAUAAGCCCAUUAAUGUGUAACAACAAGUUUAACAGUUAAGAGAGAGUAGCUGUUCACCUUGAAGACAGUGGAAUUCUCGGGUGCCAA | 0.493 |

Block 5
Target: Ras GTPase-activating protein-binding protein 1, full length (G3BP1, Homo sapiens, UniProt Q13283)
Chain of UniProt Q13283 (whole entry, looked up): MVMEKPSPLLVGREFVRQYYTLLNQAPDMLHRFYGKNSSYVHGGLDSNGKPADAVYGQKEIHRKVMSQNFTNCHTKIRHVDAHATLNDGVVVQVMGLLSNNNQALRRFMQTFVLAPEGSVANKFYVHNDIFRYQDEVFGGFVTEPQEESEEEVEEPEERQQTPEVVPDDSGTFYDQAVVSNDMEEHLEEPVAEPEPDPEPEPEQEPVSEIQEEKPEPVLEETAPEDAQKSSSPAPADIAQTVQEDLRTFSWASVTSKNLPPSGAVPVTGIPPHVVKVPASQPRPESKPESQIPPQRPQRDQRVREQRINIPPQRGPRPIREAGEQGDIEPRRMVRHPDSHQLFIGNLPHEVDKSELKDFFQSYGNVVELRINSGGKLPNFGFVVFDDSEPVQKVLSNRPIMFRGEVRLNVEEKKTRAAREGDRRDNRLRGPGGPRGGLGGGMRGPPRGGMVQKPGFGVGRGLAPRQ
Technique: RNA Bind-n-Seq
Form: RNA
Medium: in vitro
Tested at: 200 nM
Setting: whole 134-nt RNA, ends assumed
Added: 150 mM LiCl
Reference: input library
Direction: higher = stronger binding
All molecules: 7-deaza-guanosine replaces G
| Strand | log2 enrichment |
| --- | --- |
| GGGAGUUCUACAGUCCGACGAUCAGUCCUGUGCUACACAUCGUAUGUACCGAAUCGGGAAAAGGGGAAAAGGGGAAAAGGGAAAGUAUUAUGUUACGCCGUUCGGAUCUGCACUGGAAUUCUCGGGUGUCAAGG | 0.0518 |
| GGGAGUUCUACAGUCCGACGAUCUCAAGUCCUGUGCUACACAUCGUAUGUACCGAAUCGGGUUGGGGUUGGGGUUGGGAAAGUAUUAUGUUACGCCGUUCGGAUCUGCACUUCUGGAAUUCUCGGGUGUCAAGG | -0.412 |
| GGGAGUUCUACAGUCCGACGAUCAGUCCUGUGCUACACAUCGUAUGUACCGAAUCGGGGAAAAAGGGGAAAGGGGUGGGGAAAGUAUUAUGUUACGCCGUUCGGAUCUGCACUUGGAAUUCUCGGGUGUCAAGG | -0.0835 |
| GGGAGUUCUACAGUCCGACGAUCGUCCUGUGCUACACAUCGUAUGUACCGAAUCGGGAAAAAGGGUUUGGGUUUUUUUGGGAAAGUAUUAUGUUACGCCGUUCGGAUCUGCACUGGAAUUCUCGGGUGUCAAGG | -1.72 |
| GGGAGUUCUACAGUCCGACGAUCGUCCUGUGCUACACAUCGUAUGUACCGAAUCGGGGAAAGGGGUUUUUGGGGUUUGGGGAAAGUAUUAUGUUACGCCGUUCGGAUCUGCACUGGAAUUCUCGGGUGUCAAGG | -0.984 |
| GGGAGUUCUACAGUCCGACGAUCAAGUCCUGUGCUACACAUCGUAUGUACCGAAUCGGUUUUGGGGUUUUGGGUUUUGGGAAAGUAUUAUGUUACGCCGUUCGGAUCUGCACUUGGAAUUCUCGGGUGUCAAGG | -0.0529 |
| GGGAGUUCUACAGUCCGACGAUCACCAUGCAGGUGGGCAUCUUUGGGAAGUGGGGCAAGGGGGGGAUAGGGAGGGGGGUAACACUUUGUGAACAGGUGGUCCCAGGUCGUUUCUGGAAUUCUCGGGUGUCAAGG | 0.0386 |
| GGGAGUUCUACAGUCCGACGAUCAAGUCCUGUGCUACACAUCGUAUGUACCGAAUCGGAGGUUUUUUUGGUUUUUUUGGAAAGUAUUAUGUUACGCCGUUCGGAUCUGCACUUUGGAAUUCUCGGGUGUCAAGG | -0.785 |
| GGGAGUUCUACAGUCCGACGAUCGCAGGAAGUAAAAACAAAUGGAAAUGCUUCGGAUAGUGGCAGGGGUGAAAGUUGCUAAGGAAAGGGUGGGAUGGGAGUGGGUAAAGAGUUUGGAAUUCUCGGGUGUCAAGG | 0.526 |
| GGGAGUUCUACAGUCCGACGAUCCACAGACAACACGCACCCACACAGACACAGAGGGAAGGGGUUGGGAUGGGGACAGGGUGAACAGCAGGGCGGGGUAGGACCCCAGCCCCUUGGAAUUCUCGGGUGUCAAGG | -0.7 |
| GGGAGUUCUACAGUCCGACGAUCAGUCCUGUGCUACACAUCGUAUGUACCGAAUCGGGGAAAAGGGAAAAGGGGAAAAGGGAAAGUAUUAUGUUACGCCGUUCGGAUCUGCACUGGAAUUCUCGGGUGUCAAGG | -0.199 |

For quick reference, copied from above (block 1):
| Strand | E-score |
| --- | --- |
| AAAGGCCG | -0.216 |
| ACGGCTGC | -0.341 |
| AGAAGACC | -0.167 |
| ATTGAAGA | 0.158 |
| CTTCGGTC | -0.0383 |
